Measurements pooled from the literature.
A part holds a random share of what one study measured. Positions count from the first letter of the parent shown.

Study 1
Target: Ras GTPase-activating protein-binding protein 1, C-terminal RGG region (G3BP1, Homo sapiens, UniProt Q13283)
Sequence of UniProt Q13283 (whole entry, looked up): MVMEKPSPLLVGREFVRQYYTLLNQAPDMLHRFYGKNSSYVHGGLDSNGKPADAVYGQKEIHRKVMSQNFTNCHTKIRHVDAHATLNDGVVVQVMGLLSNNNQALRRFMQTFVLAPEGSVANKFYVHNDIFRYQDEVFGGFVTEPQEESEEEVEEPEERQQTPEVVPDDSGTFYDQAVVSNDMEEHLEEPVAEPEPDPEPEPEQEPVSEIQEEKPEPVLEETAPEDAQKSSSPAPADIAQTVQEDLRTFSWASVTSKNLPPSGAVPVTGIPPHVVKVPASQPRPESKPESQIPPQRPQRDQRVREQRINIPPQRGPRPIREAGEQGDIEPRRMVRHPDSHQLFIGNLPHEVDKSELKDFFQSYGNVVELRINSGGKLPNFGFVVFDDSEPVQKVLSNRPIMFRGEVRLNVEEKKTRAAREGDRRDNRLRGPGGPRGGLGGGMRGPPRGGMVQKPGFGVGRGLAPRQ
Technique: RNA Bind-n-Seq
Molecule type: RNA
Matrix: in vitro
Tested at: 1 µM
Setting: whole 134-nt RNA, ends assumed
Together with: 150 mM KCl
Baseline: input library
Direction: higher = stronger binding
All sequences stand within: GGGAGUUCUACAGUCCGACGAUC … UGGAAUUCUCGGGUGUCAAGG
The log2 enrichment of `AAGUCCUGUGCUACACAUCGUAUGUACCGAAUCGGGAAAGGGAAAAAAAGGGUGGGAAAGUAUUAUGUUACGCCGUUCGGAUCUGCACUU` is reported as 0.904.
The log2 enrichment of `UUGGCGCAUGCGCCUAAAGCUGACGGGUUUGAAAUGGCUUCGAUGUUAGCCGGGACCCGACUCAGGUGAAGGUCUGGUCCCCGUAGUUGG` is reported as -1.27.
With `UCAAGUCCUGUGCUACACAUCGUAUGUACCGAAUCGGUUUGGUUUGGUUUGGGGAAAGUAUUAUGUUACGCCGUUCGGAUCUGCACUUCC` the log2 enrichment was -1.15.
For `CACAGACAACACGCACCCACACAGACACAGAGGGAAGGGGUUGGGAUGGGGACAGGAUGCACAGCAGGGCGGGGUAGGACCCCAGCCCCU`, the log2 enrichment was -0.995.
For `CCUCAAGUCCUGUGCUACACAUCGUAUGUACCGAAUCGGAGGAGGAAAAAGGAAAGUAUUAUGUUACGCCGUUCGGAUCUGCACUUCCAG`, the log2 enrichment was -0.903.
With `UUGCAGCAACUGCUACCAGCCUCCCAGUCCACACAGCUGCCAUGCUCAAGUUCCCCUCAGGAGACCACCCAGUCUCGCCCUAUGCCGCCG` the log2 enrichment was 0.217.
The log2 enrichment of `CUCAAGUCCUGUGCUACACAUCGUAUGUACCGAAUCGGUUUUUGGAAAGGAGGAAAGUAUUAUGUUACGCCGUUCGGAUCUGCACUUCCA` is reported as -1.29.
For `CACAGACAACACGCACCCACACAGACACAGAGGGAAGGGGUUGGGAUGGGGACAGGGUGCACAGCAGGGCGGGGUAGGACCCCAGUCCCU`, the log2 enrichment was -1.07.

Study 2
Target: RING finger protein unkempt homolog, zinc fingers 1-6, GST-SBP tag (UNK, Homo sapiens, UniProt Q9C0B0, residues 30-357)
Sequence of UniProt Q9C0B0 (30-357, looked up): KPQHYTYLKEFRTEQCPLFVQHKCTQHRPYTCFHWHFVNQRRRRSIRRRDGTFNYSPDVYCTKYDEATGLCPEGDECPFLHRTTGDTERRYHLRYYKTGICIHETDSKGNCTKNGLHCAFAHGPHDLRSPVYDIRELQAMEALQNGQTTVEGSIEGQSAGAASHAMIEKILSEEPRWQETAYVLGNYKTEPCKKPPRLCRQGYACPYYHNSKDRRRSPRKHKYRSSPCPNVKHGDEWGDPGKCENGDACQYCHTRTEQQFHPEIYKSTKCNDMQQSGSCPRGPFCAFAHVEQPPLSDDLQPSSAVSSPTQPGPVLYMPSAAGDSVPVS
Technique: RNA Bind-n-Seq
Molecule type: RNA
Matrix: in vitro
Tested at: not given
Setting: RNA with constant flanks, human-mouse chimeric sites, ends assumed
Baseline: input RNA pool
Direction: higher = stronger binding
All sequences stand within: GGGAGUUCUACAGUCCGACGAUC … CAACAGAGGAUUGAGCAUCA
The bound/input enrichment of `UGUGAACUGAAAGGUGUGAUCUAAAAACAAGAUGACUUUUCCUGGCACAUAUUCCAAAGCAAAGACUUUGUUGCCUGCUGCUUCUUGUCUAAUUUACAGGGAUAUUUAAUUUUGUCAGGU` is reported as 0.141 ratio.
For `GUCAACAGUUGUCUCAACCCCAUCCUCUACGCCUUCCUGGAUGAGAACUUCAAGGCCUGCUUUAGAAAGUUCUGCUGUGCAUCUGCCCUGCGCCGGGACGUGCAGGUGUCUGACCGCGUG`, the bound/input enrichment was 0.447 ratio.
`CCCCAAUACCAUUUGCAGGUCUGGAACUGCACUCUCUUUUUUAAAAAAUAUGCAUAUAUUUUAGGGCUGUAGAUUUACUUUCCUAUUUUUGUUUUUCAUUGCUGACUUUUGAGCACAGAA` has a bound/input enrichment of 1.12 ratio.
With `CUGUGUGGCUUACUAAAAUGGCUUGUAAAGAAGUUUUUCCAAGCUGUAACCCAUGCUGUUAUUAUAGUUGCUGCAAAAUGUCUCUUAUGAUAUUGAUUUUAUUUGUUAACUGAAGGUCUC` the bound/input enrichment was 0.491 ratio.
`GACCCACAGUGGUCUGAGGAACAGCUGAUUGCUGCAAAAUUCUGUUUUGCUGGCCUUGUUAUAGGGCAGACUGAAGUGGACAUCAUGAGUCAUGCCACACAAGCUAUUUUUGAAAUUCUG` gave a bound/input enrichment of 0.261 ratio.
The bound/input enrichment of `CGCUGGCCCAAGCUGAUGGACUCUGAUCUUGAUCUCUUCUCAGGCACGUGUGCCUUCUCUUAGUCCCUUCUGGGUUGAUGUUAUGAAUCUCAGUACUGUGGUUUGAAAGCACCAGCUUUG` is reported as 0.389 ratio.
`UCUUUAAAAAAAAAAUUACCUUUUCUGACAGUGCUUUCCCUCCCAUAGAUCCACGUUCAAGCUCAAAGAGCAAAGGCUCCGCAAACAGCUCAAACAUCUGAUGAAGAAAGAUUUCUGAGA` has a bound/input enrichment of 0.987 ratio.
For `AAAGAUCUACUGAGGCAAGGCAGCAAAUUUAGAAGAAACAUUUCAACAAUAUUGAUAGAGUUAGGAUUCCAAAUUAAAAAGAAAACUAAGACAUUAUACAUCAACAAAGCCAAUGUGUGG`, the bound/input enrichment was 13.7 ratio.

Study 3
Target: CCND2, cyclin fold, Cln2 fusion (human)
Technique: yeast growth competition, sequencing
Matrix: yeast
Setting: weak parent motif
Baseline: not given
Direction: higher = stronger binding
Starting sequence: MASTL docking peptide (human); PMIAKNLMCELDE; partner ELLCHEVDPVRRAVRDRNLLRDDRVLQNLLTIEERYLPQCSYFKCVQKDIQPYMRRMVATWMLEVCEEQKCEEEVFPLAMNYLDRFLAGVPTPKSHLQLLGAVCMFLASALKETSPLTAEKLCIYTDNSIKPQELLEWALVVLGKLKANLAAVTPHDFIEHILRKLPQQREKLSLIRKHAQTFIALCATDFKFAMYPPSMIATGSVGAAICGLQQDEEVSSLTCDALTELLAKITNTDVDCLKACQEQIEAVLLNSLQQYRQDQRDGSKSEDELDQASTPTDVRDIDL
For `L11E`, “normalised enrichment score” read 0.368.
`C9I` — result for “normalised enrichment score”: -0.172.
Under “normalised enrichment score”, `D12N` is recorded as 0.0344.
Under “normalised enrichment score”, `E10F` is recorded as -0.21.
`L7T`: “normalised enrichment score” -0.222.
For `M8A`, “normalised enrichment score” read -0.232.
`E10W` — result for “normalised enrichment score”: 0.0929.
For `E10S`, “normalised enrichment score” read -0.252.

Single results of other studies
`PVTPVIPRV` — result for binding: “inactive” (HLA class I histocompatibility antigen, A alpha chain, allele A*80:01 (Homo sapiens, UniProt P04439); peptide-MHC binding; peptide; concentration not given).

For quick reference, copied from above (study 2):
For `GUCAACAGUUGUCUCAACCCCAUCCUCUACGCCUUCCUGGAUGAGAACUUCAAGGCCUGCUUUAGAAAGUUCUGCUGUGCAUCUGCCCUGCGCCGGGACGUGCAGGUGUCUGACCGCGUG`, the bound/input enrichment was 0.447 ratio.
`CCCCAAUACCAUUUGCAGGUCUGGAACUGCACUCUCUUUUUUAAAAAAUAUGCAUAUAUUUUAGGGCUGUAGAUUUACUUUCCUAUUUUUGUUUUUCAUUGCUGACUUUUGAGCACAGAA` has a bound/input enrichment of 1.12 ratio.
